Measured values gathered from unrelated publications.
Protocols differ between the studies behind these lines. ± gives the spread as reported.
Method: steady-state kinetics
B1: LYS1 C205S/D319A (Saccharomyces cerevisiae, UniProt P38998); chain MAAVTLHLRAETKPLEARAALTPTTVKKLIAKGFKIYVEDSPQSTFNINEYRQAGAIIVPAGSWKTAPRDRIIIGLKEMPETDTFPLVHEHIQFAHCYKDQAGWQNVLMRFIKGHGTLYDLEFLENDQGRRVAAFGFYAGFAGAALGVRDWAFKQTHSDDEDLPAVSPYPNEKALVKDVTKDYKEALATGARKPTVLIIGALGRSGSGAIDLLHKVGIPDANILKWDIKETSRGGPFDEIPQADIFINCIYLSKPIAPFTNMEKLNNPNRRLRTVVDVSADTTNPHNPIPIYTVATVFNKPTVLVPTTAGPKLSVISIAHLPSLLPREASEFFSHDLLPSLELLPQRKTAPVWVRAKKLFDRHCARVKRSSRL
B2: MMP2 (Homo sapiens, UniProt P08253); chain YNFFPRKPKWDKNQITYRIIGYTPDLDPETVDDAFARAFQVWSDVTPLRFSRIHDGEADIMINFGRWEHGDGYPFDGKDGLLAHAFAPGTGVGGDSHFDDDELWTLGEGQVVRVKYGNADGEYCKFPFLFNGKEYNSCTDTGRSDGFLWCSTTYNFEKDGKYGFCPHEALFTMGGNAEGQPCKFPFRFQGTSYDSCTTEGRTDGYRWCGTTEDYDRDKKYGFCPETAMSTVGGNSEGAPCVFPFTFLGNKYESCTSAGRSDGKMWCATTANYDDDRKWGFCPDQGYSLFLVAAHEFGHAMGLEHSQDPGALMAPIYTYTKNFRLSQDDIKGIQELYGASPDIDLGTGPTPTLGPVTPEICKQDIVFDGIAQIRGEIFFFKDRFIWRTVTPRDKPMGPLLVATFWPELPEKIDAVYEAPQEEKAVFFAGNEYWIYSASTLERGYPKPLTSLGLPPDVQRVDAAFNWSKNKKTYIFAGDKFWRYNEVKKKMDPGFPKLIADAWNAIPDNLDAVVDLQGGGHSYFFKGAYYLKLENQSLKSVKFGSIKSDWLGC
B3: Mj-MAT W387F/Y49W (Methanocaldococcus jannaschii, UniProt Q58605); chain MRNIIVKKLDVEPIEERPTEIVERKGLGHPDSICDGIAESVSRALCKMWMEKFGTILHHNTDQVELVGGHAYPKFGGGVMVSPIYILLSGRATMEILDKEKNEVIKLPVGTTAVKAAKEYLKKVLRNVDVDKDVIIDCRIGQGSMDLVDVFERQKNEVPLANDTSFGVGYAPLSTTERLVLETERFLNSDELKNEIPAVGEDIKVMGLREGKKITLTIAMAVVDRYVKNIEEYKEVIEKVRKKVEDLAKKIADGYEVEIHINTADDYERESVYLTVTGTSAEMGDDGSVGRGNRVNGLITPFRPMSMEAASGKNPVNHVGKIYNILANLIANDIAKLEGVKECYVRILSQIGKPINEPKALDIEIITEDSYDIKDIEPKAKEIANKFLDNIMEVQKMIVEGKVTTF
B4: enzyme G29Y (Thermobifida fusca, UniProt Q47RA9); chain MIMIMASKSSPHDLPDVSGLSIAVLGGTYDQGRGLARRFAMAGHEVILGSRSAERAQAVAAELGEGLPVRGMDNAGAAEAGDVVIVAVPWDGHRALLESLKDVLAGKIVVDCVNPLGFDKRGAYALPVEEGSAAEQAAAILPDSRVVAAFHHVSAVLLLDPEVEKVDLDVLVLGDDREATDVVRALAARIPGVRGVYGGRLRNAHQVEAFTANLISINRRYKAHAGIRITDI
B5: Ma-WS/DGAT G25V (Marinobacter nauticus); chain MTPLNPTDQLFLWLEKRQQPMHVGVLQLFSFPEGAPDDYVAQLADQLRQKTEVTAPFNQRLSYRLGQPVWVEDEHLDLEHHFRFEALPTPGRIRELLSFVSAEHSHLMDRERPMWEVHLIEGLKDRQFALYTKVHHSLVDGVSAMRMATRMLSENPDEHGMPPIWDLPCLSRDRGESDGHSLWRSVTHLLGLSGRQLGTIPTVAKELLKTINQARKDPAYDSIFHAPRCMLNQKITGSRRFAAQSWCLKRIRAVCEAYGTTVNDVVTAMCAAALRTYLMNQDALPEKPLVAFVPVSLRRDDSSGGNQVGVILASLHTDVQEAGERLLKIHHGMEEAKQRYRHMSPEEIVNYTALTLAPAAFHLLTGLAPKWQTFNVVISNVPGPSRPLYWNGAKLEGMYPVSIDMDRLALNMTLTSYNDQVEFGLIGCRRTLPSLQRMLDYLEQGLAELELNAGL
B6: protein (Amanita muscaria, UniProt A0A650FNW1); chain MSTKPETDLQTVLDSEIKEWHFHIYFHQNNAAEHQAALELRDAVLRLRQDGAFVAVPLFRVNMDPMGPHPVGSYEIWVPSETFASVFSYLCMNRGRLSILVHPLTREELRDHEIRNAWIGPSFPLNLANLPIKSDEIPLQYPSLKLGYSSTAHKMSLEERRKLGDDIEAVLRGEKEAARAPHRDA
B7: protein (Shewanella denitrificans, UniProt Q12KT8); chain MIHKLADVQSQNIGDNTKVWQFCVILAGAVIGRNCNICANSLIENDVVIGDNVTIKSGVQIWDGIHIQDDVFIGPNVTFTNDKQPRSKIYPDEYLKTIVKKGASIGANSTILPGILIGENAMVGAGAVITKNVPDNAIVIGNPGRITGYVEANTGVIMPSNNFELKLQMSKVKGVSLHKFHLVNDLRGNLSVGEFEKDIPFTPKRYFTVFGVPNKEVRGEHAHKECKQFLICVSGNCSVLVDDGENREEYVLDSIDKGIYLPPMTWGVQYKYSKDAVLLVFASHYYDSDDYIRDYSTFKQMRQN
B8: protein Y93T (Thermus thermophilus, UniProt Q5SKR5); chain MSAPKPFVIGIAGGTASGKTTLAQALARTLGERVALLPMDHYYKDLGHLPLEERLRVNYDHPDAFDLALYLEHAQALLRGLPVEMPVYDFRATTRSPRRTPVRPAPVVILEGILVLYPKELRDLMDLKVFVDADADERFIRRLKRDVLERGRSLEGVVAQYLEQVKPMHLHFVEPTKRYADVIVPRGGQNPVALEMLAAKALARLARMGAA
B9: tsaM1 F253S/H255G/M230N/R216A/S234V/S257H (Comamonas testosteroni, UniProt P94679); chain MFIRNCWYVAAWDTEIPAEGLFHRTLLNEPVLLYRDTQGRVVALENRCCHRSAPLHIGRQEGDCVRCLYHGLKFNPSGACVEIPGQEQIPPKTCIKSYPVVERNRLVWIWMGDPARANPDDIVDYFWHDSPEWRMKPGYIHYQANYKLIVDNLLDFTHLAWVHPTTLGTDSAASLKPVIERDTTGTGKLTITRWYLNDDMSNLHKGVAKFEGKADAWQIYQWSPPALLRNDTGVAPTGTGAPEGRRVPEAVQSRGTHIQTPETETTSHYWFCQARNFDLDDEALTEKIYQGVVVAFEEDRTMIEAHEKILSQVPDRPMVPIAADAGLNQGRWLLDRLLKAENGGTAP

Molecule	substrate	pH	temperature	notes	with	kcat [s⁻¹]
B1 (LYS1 C205S/D319A)	O=C(O)CCC(=O)C(=O)O	pH 7.2	25 °C	–	NADH and Lys	35 ± 5
Plasma amine oxidase (Bos taurus, UniProt Q29437)	NCCOc1ccc2cc(CN)ccc2c1	pH 7.2	30 °C	–	–	0.0244 ± 0.0032
tmcA (Escherichia coli, UniProt P76562)	Nc1nc2c(ncn2[C@@H]2O[C@H](COP(=O)(O)OP(=O)(O)OP(=O)(O)O)[C@@H](O)[C@H]2O)c(=O)[nH]1	pH 7.8	–	–	–	0.0252
B2 (MMP2)	CC(=O)NCC(=O)N1CCC[C@H]1C(=O)N[C@@H](CC(C)C)C(=O)NCC(=O)N[C@@H](CC(C)C)C(=O)N[C@@H](CO)C(=O)N[C@@H](CC(C)C)C(=O)NCC(=O)N[C@@H](CCCCN)C(N)=O	–	–	–	–	21.1
enzyme (Pseudomonas aeruginosa, UniProt Q9HXU0)	Nc1ncnc2c1ncn2[C@@H]1O[C@H](COP(=O)(O)OP(=O)(O)OP(=O)(O)O)[C@@H](O)[C@H]1O	pH 7.5	37 °C	apparent	–	22.8
B3 (Mj-MAT W387F/Y49W)	CSCC[C@H](N)C(=O)O	–	55 °C	–	ATP 2.5 mM, methionine 0.05-1 mM	1 ± 0.3
B4 (enzyme G29Y)	NC(=O)c1ccc[n+](CCO)c1	pH 8	25 °C	–	–	0.103 ± 0.00967
mleA (Oenococcus oeni, UniProt Q48796)	O=C(O)C[C@H](O)C(=O)O	pH 6	45 °C	–	–	234 ± 7.33
B5 (Ma-WS/DGAT G25V)	CCCCCC(=O)SCCNC(=O)CCNC(=O)[C@H](O)C(C)(C)COP(=O)(O)OP(=O)(O)OC[C@H]1O[C@@H](n2cnc3c(N)ncnc32)[C@H](O)[C@@H]1OP(=O)(O)O	pH 7.5	25 °C	NaCl 300 mM, lower limit, not saturable, apparent	1-hexanol 4 mM	> 0.09
B6 (protein)	N[C@@H](Cc1ccc(O)c(O)c1)C(=O)O	pH 8.5	25 °C	ascorbic acid 10 mM	O2	0.91 ± 0.00167
B7 (protein)	Cc1cn([C@H]2C[C@H](O)[C@@H](COP(=O)(O)OP(=O)(O)O[C@H]3O[C@H](C)[C@@H](O)[C@H](N)[C@H]3O)O2)c(=O)[nH]c1=O	pH 8.5	–	–	acetyl-CoA 2 mM	7.9 ± 0.8
alanine racemase (Geobacillus stearothermophilus, UniProt P10724)	C[C@@H](N)C(=O)O	pH 9	room temperature	–	NAD+ 10 mM	3500
enzyme (Arabidopsis thaliana, UniProt Q9LTH2)	O=c1ccn([C@@H]2O[C@H](CO[P@@](=O)(O)O[P@@](=O)(O)O[C@H]3O[C@H](CO)[C@@H](O)[C@H](O)[C@H]3O)[C@@H](O)[C@H]2O)c(=O)[nH]1	pH 7.5	25 °C	–	–	0.0107
B8 (protein Y93T)	Nc1ccn([C@@H]2O[C@H](CO)[C@@H](O)[C@H]2O)c(=O)n1	pH 7.2	25 °C	KCl 100 mM	ATP 100–200 µM	3.1 ± 0.1
B9	COc1cc(C(=O)O)ccc1O	–	–	apparent	NADH 1 mM	0.0633 ± 0.00333
BaiA2 (Clostridium scindens, UniProt P19337)	C[C@H](CCC(=O)SCCNC(=O)CCNC(=O)[C@H](O)C(C)(C)COP(=O)(O)OP(=O)(O)OC[C@H]1O[C@@H](n2cnc3c(N)ncnc32)[C@H](O)[C@@H]1OP(=O)(O)O)[C@H]1CC[C@H]2[C@@H]3[C@H](O)C[C@@H]4C[C@H](O)CC[C@]4(C)[C@H]3C[C@H](O)[C@]12C	pH 8.7	37 °C	–	NAD+	0.167
pcpF (Sphingobium chlorophenolicum, UniProt Q8KN33)	N[C@@H](CS)C(=O)O	pH 6.5	–	–	GS-TriCH, ascorbic acid 2 mM	0.37 ± 0.09

For quick reference, copied from above:
Molecule	substrate	pH	temperature	notes	with	kcat [s⁻¹]
B7 (protein)	Cc1cn([C@H]2C[C@H](O)[C@@H](COP(=O)(O)OP(=O)(O)O[C@H]3O[C@H](C)[C@@H](O)[C@H](N)[C@H]3O)O2)c(=O)[nH]c1=O	pH 8.5	–	–	acetyl-CoA 2 mM	7.9 ± 0.8
alanine racemase (Geobacillus stearothermophilus, UniProt P10724)	C[C@@H](N)C(=O)O	pH 9	room temperature	–	NAD+ 10 mM	3500
